Measured values collected from several papers.
A part holds a random share of what one study measured.

Study 1 — method: RNA Bind-n-Seq; form: RNA; sample: in vitro; concentration: 1 µM; notes: whole 134-nt RNA, ends assumed; together with: 150 mM KCl; relative to: input library; reading: higher = stronger binding
Target: Ras GTPase-activating protein-binding protein 1, RRM domain (G3BP1, Homo sapiens, UniProt Q13283)
UniProt Q13283, sequence (whole entry, looked up): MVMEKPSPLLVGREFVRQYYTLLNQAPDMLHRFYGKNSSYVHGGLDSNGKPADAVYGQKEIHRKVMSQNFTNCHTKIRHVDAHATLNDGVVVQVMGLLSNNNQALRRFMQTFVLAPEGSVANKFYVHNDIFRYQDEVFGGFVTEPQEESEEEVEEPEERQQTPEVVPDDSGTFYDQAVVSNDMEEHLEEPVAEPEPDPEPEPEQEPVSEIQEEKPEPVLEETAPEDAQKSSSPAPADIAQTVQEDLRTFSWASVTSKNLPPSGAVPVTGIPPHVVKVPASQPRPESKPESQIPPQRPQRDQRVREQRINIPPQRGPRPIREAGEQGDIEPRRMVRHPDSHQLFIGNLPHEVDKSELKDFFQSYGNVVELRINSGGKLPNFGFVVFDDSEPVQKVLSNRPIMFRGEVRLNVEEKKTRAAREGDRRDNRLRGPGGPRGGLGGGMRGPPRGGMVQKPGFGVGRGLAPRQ
| Oligonucleotide | log2 enrichment |
| --- | --- |
| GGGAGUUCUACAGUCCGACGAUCAAGUCCUGUGCUACACAUCGUAUGUACCGAAUCGGGCCCCGGCCCCGGGCCCCGGGGAAAGUAUUAUGUUACGCCGUUCGGAUCUGCACUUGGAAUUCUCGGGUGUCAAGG | -0.98 |
| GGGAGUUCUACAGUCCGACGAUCGUCCUGUGCUACACAUCGUAUGUACCGAAUCAAAUUUUUAAACCCCCAAAUUUUUAAAAAAGUAUUAUGUUACGCCGUUCGGAUCUGCACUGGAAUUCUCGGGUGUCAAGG | -0.354 |
| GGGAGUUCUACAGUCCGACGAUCGUCCUGUGCUACACAUCGUAUGUACCGAAUCGGGUUUUUUUGGGAGGGUUUUUUUGGGAAAGUAUUAUGUUACGCCGUUCGGAUCUGCACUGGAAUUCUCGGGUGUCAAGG | -0.00197 |
| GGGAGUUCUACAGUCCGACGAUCUGCAGAAGCAUCUUCAGUUGGAGAGCCAUUGCCUCUUGCUGUGAAAUAUUUGGGAAUCUUCAGAAACCAUGAAGAAUAACCUGCUAAAGGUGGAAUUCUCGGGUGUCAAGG | -0.211 |
| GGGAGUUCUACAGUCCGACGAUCCAAGUCCUGUGCUACACAUCGUAUGUACCGAAUCGGGAAAGGGAAAGGAAAGGGGAAAGUAUUAUGUUACGCCGUUCGGAUCUGCACUUCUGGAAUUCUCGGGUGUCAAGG | 0.0815 |
| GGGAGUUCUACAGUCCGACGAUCAAGUCCUGUGCUACACAUCGUAUGUACCGAAUCGGGAAAAGGGAAAAGGGAAAAGGAAAGUAUUAUGUUACGCCGUUCGGAUCUGCACUUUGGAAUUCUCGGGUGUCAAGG | -0.104 |
| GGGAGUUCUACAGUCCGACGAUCGCAGGAAGUAAAAACAAAUGGAAAUGCUUCGGAUAGAAACAGGGGUGGGGGUUGCUAAGGAAAGGGUGGGAUGGGAGUGGGUAAAGAGUUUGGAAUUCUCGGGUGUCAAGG | 1.05 |
| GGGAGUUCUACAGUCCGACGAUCUCAAGUCCUGUGCUACACAUCGUAUGUACCGAAUCGGUGGAAAAAGGAAAAAGGAAAGUAUUAUGUUACGCCGUUCGGAUCUGCACUUCCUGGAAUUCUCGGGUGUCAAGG | -0.0174 |
| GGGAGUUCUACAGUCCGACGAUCGUCCUGUGCUACACAUCGUAUGUACCGAAUCGGGCCCCCGGGGCCCCCGGGGCCCCCGGAAAGUAUUAUGUUACGCCGUUCGGAUCUGCAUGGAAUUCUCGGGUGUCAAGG | -1.26 |

Study 2 — method: universal PBM; form: double-stranded DNA, one strand shown; sample: in vitro; concentration: not given; reading: higher = stronger binding
Target: Sal-like protein 4, full length isoform B (SALL4, Homo sapiens, UniProt Q9UJQ4-2, residues 1-616)
Notes: 8-mer, flanks averaged, mean of replicates
Residues (chain): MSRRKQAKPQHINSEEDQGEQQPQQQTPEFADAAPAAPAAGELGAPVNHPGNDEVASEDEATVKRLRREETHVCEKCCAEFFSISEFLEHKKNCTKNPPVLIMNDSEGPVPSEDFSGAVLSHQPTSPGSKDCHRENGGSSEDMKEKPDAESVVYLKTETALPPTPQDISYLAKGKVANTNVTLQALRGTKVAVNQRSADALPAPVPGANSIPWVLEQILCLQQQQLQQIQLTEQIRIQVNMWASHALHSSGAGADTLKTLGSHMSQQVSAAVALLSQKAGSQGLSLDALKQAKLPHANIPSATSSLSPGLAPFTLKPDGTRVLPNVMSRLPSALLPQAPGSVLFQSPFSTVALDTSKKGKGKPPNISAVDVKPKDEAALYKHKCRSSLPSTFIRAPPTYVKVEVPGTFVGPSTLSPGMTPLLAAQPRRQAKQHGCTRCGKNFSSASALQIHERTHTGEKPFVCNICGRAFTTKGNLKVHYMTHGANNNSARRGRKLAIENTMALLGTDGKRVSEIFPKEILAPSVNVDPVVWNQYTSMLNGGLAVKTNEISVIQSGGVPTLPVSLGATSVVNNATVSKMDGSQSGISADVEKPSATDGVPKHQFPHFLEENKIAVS
| Oligonucleotide | E-score |
| --- | --- |
| CCGGTTTA | -0.102 |
| CTCGTCAC | 0.00078 |
| AATCCCTC | -0.0174 |
| GATCTCAC | -0.0654 |
| CCGCATGC | -0.142 |
| ACCGAGGT | -0.282 |
| AGGAGTAT | 0.0156 |
| CGCTTCGA | -0.274 |
| AGCCCGGC | -0.359 |
| CGCCGCGA | -0.195 |
| GCCGACAA | -0.179 |
| AAGCAGGT | -0.0732 |
| ACCGTAAG | -0.0255 |
| GTGGCCTA | -0.201 |
| ACTTACTC | 0.0305 |
| GAGAGGTA | -0.219 |
| ACACCAGA | 0.059 |
| CGACAAAG | 0.142 |
| ATACCGCA | -0.016 |
| CGGCTCGA | -0.298 |
| AATGTGAG | 0.138 |
| GCAGCGAC | -0.386 |

Study 3 — method: RNA Bind-n-Seq; form: RNA; sample: in vitro; concentration: 365 nM; relative to: no-protein control; reading: higher = stronger binding
Target: RNA binding protein fox-1 homolog 2, RRM domain, GST-SBP tag (RBFOX2, Homo sapiens, UniProt O43251-10, residues 100-194)
Notes: natural RNA segment, single round, ends assumed
Target sequence (chain): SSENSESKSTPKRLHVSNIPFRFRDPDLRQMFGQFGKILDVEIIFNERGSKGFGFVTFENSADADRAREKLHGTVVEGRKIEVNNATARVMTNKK
| Oligonucleotide | RBNS enrichment (R) |
| --- | --- |
| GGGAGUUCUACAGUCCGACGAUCGACUAAGGGUAGAGACUAAGGGGAGACUUGUUUUUCUGAAGUAGACUGCUUUCACUCGGCCUGAUGGACAAGCCCGCGUGUGUUCACGUCUGUGUGUAACUCACCCAGAGUGGAAUUCUCGGGUGCCAA | 0.196 |
| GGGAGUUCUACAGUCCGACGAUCUCCUCUCCUCUAUAGCUAUUAGAUGUGUCAGGACCAAGUUGACCCCAACUUUCAGAACGUCCCUAGCCCUGUCUUCAUCCCUUCCCCUGCCAGUGCCUUACCACCUACCCUGGAAUUCUCGGGUGCCAA | 1.12 |
| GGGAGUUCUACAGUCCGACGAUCGGUUUUUUAUUACUGUUCCAUUUUGCAACAUCCUGCAACACCAUCCUGGGAGACAAGAGCAUUACCCAGCUUGGCUUUCACGGGGGAGGGUUGUAUUCAGUAAAAAAGAAUGGAAUUCUCGGGUGCCAA | 0.911 |
| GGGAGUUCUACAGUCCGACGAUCACAUUUGGGAACAUUUGACUUCCUUGGGACUCUUAAGUGCAUAAUGAUGGCAUGAAGUAAAAGGGGCCUCAAUGAUGAUAGGAAAAUCAGUUCUUUUAAAAUUUCUUCAAUGGAAUUCUCGGGUGCCAA | 2.74 |
| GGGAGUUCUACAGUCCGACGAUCAUAAAGGAAAGAGGUUUAAUGGACUCAGUUCCACAUGGCUGGGGACGCCUCACAAUCAUGGUGGAAGGCAAGGAGGAGCAAAUCAUGUCUUAUACAUGGAUGGCAGCAGGUGGAAUUCUCGGGUGCCAA | 0.51 |
| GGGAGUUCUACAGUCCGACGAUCCCCAUUCCGGUACCUAAGUAACAUCUAUGCAAAGAAACACAUUAAAAGCAGCAAUAAAACUGCUCCUACCCACAGCCACGGAUCUUCCAAACCUAGCCCCGCUCUCAGGCUGGAAUUCUCGGGUGCCAA | 0.52 |
| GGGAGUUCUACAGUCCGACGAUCGAGAGAGUGGAGAGAGCAGUAAGGAGGCCACUGGAAGGAGCCAGACACAGAUUCUGGUUCAUUCAUUCAUUCAUUCCUUAGACAUUUUCGGUUUUACAAAGGAAGAACAGUGGAAUUCUCGGGUGCCAA | 0.575 |
| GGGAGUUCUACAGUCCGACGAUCCCCAUCAGAAUUAUAUUUAUACAUAUUGGUGGAUAAGUUCUUGUCUUCCCACAUCAGAGAAUUUUUUUUUAAACCAAAAUGGGCAGAAUAGCAUUUUGUAUGUUAGAGACUGGAAUUCUCGGGUGCCAA | 0.456 |

Study 4 — method: protein binding microarray; form: double-stranded DNA, one strand shown; sample: in vitro; concentration: not given; relative to: not given; reading: higher = stronger binding
Target: Histone acetyltransferase KAT6A, winged helix 1, GST fusion (KAT6A, Homo sapiens, UniProt Q92794, residues 1-85)
Notes: 8-mer, flanks averaged, mean of 2 arrays, mostly near background
Residues (chain): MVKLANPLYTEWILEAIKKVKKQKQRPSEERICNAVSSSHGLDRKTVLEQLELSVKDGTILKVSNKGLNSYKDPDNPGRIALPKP
| Oligonucleotide | E-score |
| --- | --- |
| CAACTTTC | -0.132 |
| CCAGGCTA | -0.219 |
| CGGCAGGA | 0.257 |
| GCGGCACC | 0.399 |
| AATGCCTA | -0.114 |
| TACGTAGA | -0.0614 |
| GGATGATA | -0.15 |
| GACCCTAC | -0.0242 |
| CTACCCGA | 0.0826 |
| TCGCGAGA | 0.205 |
| AACATGGG | -0.0432 |
| ACCTCCAA | -0.264 |
| ATGTATGG | 0.0406 |
| ACACCATC | -0.232 |
| ATCGAAAA | -0.0821 |
| GTTATAGA | -0.177 |
| CCAACATA | -0.0568 |

Study 5 — method: protein-binding microarray; form: double-stranded DNA, one strand shown; sample: in vitro; concentration: not given; reading: higher = stronger binding
Target: Protein C-ets-1 (ETS1, Homo sapiens, UniProt P14921, residues 1-441, K379A, full length assumed)
Notes: k-mer, scored over probes, only values ≥0.25
Target sequence (chain): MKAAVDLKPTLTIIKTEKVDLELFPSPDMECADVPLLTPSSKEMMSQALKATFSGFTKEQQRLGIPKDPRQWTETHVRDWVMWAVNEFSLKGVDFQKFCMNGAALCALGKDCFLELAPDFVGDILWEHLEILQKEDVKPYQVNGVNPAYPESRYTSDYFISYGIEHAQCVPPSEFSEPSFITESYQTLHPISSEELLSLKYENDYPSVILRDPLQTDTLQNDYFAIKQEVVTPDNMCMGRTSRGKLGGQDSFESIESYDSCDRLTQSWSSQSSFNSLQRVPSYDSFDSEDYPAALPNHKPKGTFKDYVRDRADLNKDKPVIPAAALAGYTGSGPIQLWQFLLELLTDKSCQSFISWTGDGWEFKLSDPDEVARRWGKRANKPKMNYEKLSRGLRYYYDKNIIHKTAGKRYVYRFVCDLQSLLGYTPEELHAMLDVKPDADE
| Oligonucleotide | E-score |
| --- | --- |
| AACCCATA | 0.253 |
| ACGCCGGA | 0.302 |
| ATCCCCGC | 0.25 |
| ACCGGATC | 0.313 |
| GGTTGTCA | 0.253 |
| ATATCTAC | 0.262 |
| AGGGGAGG | 0.268 |
| GAACGACA | 0.302 |
| CCGACGAA | 0.301 |
| AAATATCT | 0.275 |
| ACCAACAT | 0.254 |
| TTGGCAAA | 0.26 |
| ACTTCCGG | 0.478 |
| ATCCCGGA | 0.338 |
| ACCGGCAA | 0.357 |
| ACCATCAG | 0.264 |
| GATAATAC | 0.273 |
| TAACGACA | 0.257 |

Repeated from above (study 5):
| Oligonucleotide | E-score |
| --- | --- |
| ACTTCCGG | 0.478 |
| ATATCTAC | 0.262 |
| ACCGGATC | 0.313 |
| AGGGGAGG | 0.268 |
| AAATATCT | 0.275 |
| ACCGGCAA | 0.357 |
| ACCAACAT | 0.254 |
| ACGCCGGA | 0.302 |
| CCGACGAA | 0.301 |
